Measured values pooled from the literature.
Each line is one published result; not all experiments were run side by side. Several values in a cell are separate wells, animals, samples, runs or records. Numbers after ± are the reported error. In brackets after ≈: the same amount, converted by molar mass.

CCOC(=O)C1(CC#N)Oc2cc(F)ccc2N(CC#N)C1=O (centres unmarked)
inhibition (Arabidopsis thaliana; root length, petri dish germination; Col-0, 1/2 MS medium; 50 µg/mL, 7 days, 22 °C, dark): 55.3%

NCCO.O=C(O)C(Cl)Cl
herbicidal inhibition (Xanthium sibiricum; 15 mg/mL, 21 days, pre-emergence, greenhouse): 0%

CN(C)c1nc(NCc2ccc(F)cc2)c(/N=N/c2ccc(Cl)cc2)c(N(C)C)n1
mortality (Plutella xylostella; leaf dipping; 200 mg/L, 96 h): 90 ± 5.8%

CC[C@H](C)CCCCC(=O)N[C@@H](CCN)C(=O)N[C@H](C(=O)N[C@@H](CCN)C(=O)N[C@H]1CCNC(=O)[C@H]([C@@H](C)O)NC(=O)[C@H](CCN)NC(=O)[C@H](CCN)NC(=O)[C@H](CC(C)C)NC(=O)[C@@H](CC(C)C)NC(=O)[C@H](CCN)NC1=O)[C@@H](C)O
MIC fold change (Escherichia coli; daily serial passaging; ATCC 8739; highest sub-MIC, 23 days; reference: initial MIC): 1.26

Nc1ccc(N=Nc2ccccc2)c2ccccc12
IC50 (HIV-1 subtype C; viral replication; 96 h): 96400 nM

C[C@H]1[C@H](OC(=O)CCC(=O)OCc2nnn(-c3cc4ccc(O)cc4oc3=O)c2COC(=O)CCC(=O)O[C@@H]2O[C@@H]3O[C@@]4(C)CC[C@H]5[C@H](C)CC[C@@H]([C@H]2C)[C@@]35OO4)O[C@@H]2O[C@@]3(C)CC[C@H]4[C@H](C)CC[C@@H]1[C@@]24OO3
cured mice (Plasmodium berghei; NK65/GFP, infected mice; oral gavage, 65 µmol/kg once daily, 96 h dosing period): 0%

Cc1cc(Cl)cc(S(C)=NC#N)c1NC(=O)c1cc(Br)nn1-c1ncccc1Cl (centres unmarked)
mortality (Spodoptera litura; leaf-dip; third instar larvae; 6.25 ppm, 24 h): 0%

O=S(=O)(c1ccc(-c2ccc3ncnc(Nc4ccc(OCc5cccc(Cl)c5)c(Cl)c4)c3c2)cc1)N1CCOCC1
EC50 (Plasmodium falciparum; parasite growth, SYBR Green; D6; blood stage): 230 nM

FC(F)(F)c1cccc(CNc2nc(NC3CCN(Cc4ccccc4)CC3)c3nc[nH]c3n2)c1
mRNA fold change (Cryptococcus neoformans; RNA-seq, item: TEP1 (CNAG_04833); 48 µg/mL, 3 h; reference: untreated): 1.38

CC(=O)c1c(O)c(C)c(O)c2c1OC1=CC(=O)C(=C(C)NCCCC(=O)OC3OC4OC5(C)CCC6C(C)CCC(C3C)C46OO5)C(=O)C12C (centres unmarked)
parasitaemia inhibition (Plasmodium berghei; ANKA GFP, NMRI mouse; oral, 4 x 3 mg/kg, day 4 post infection): 81.9%

CC[C@H](C)[C@H](NC(=O)[C@H](CCCCN)NC(=O)[C@H](CCCNC(=N)N)NC(=O)CNC(=O)[C@@H](NC(=O)CN)C(C)C)C(=O)NCC(=O)N[C@@H](Cc1ccccc1)C(=O)N[C@@H](CCCCN)C(=O)N[C@@H](CCCCN)C(=O)N[C@H](C(=O)N[C@@H](CC(C)C)C(=O)N[C@@H](Cc1ccccc1)C(=O)N[C@@H](Cc1ccccc1)C(=O)N[C@@H](Cc1ccccc1)C(=O)N[C@@H](CCCCN)C(=O)N[C@@H](CCCCN)C(=O)NCC(=O)N[C@@H](Cc1ccc(O)cc1)C(=O)N[C@@H](CCC(=O)O)C(=O)N[C@@H](CCCCN)C(=O)N[C@@H](C)C(=O)N[C@@H](CC(N)=O)C(=O)NCC(=O)NCC(=O)N[C@@H](Cc1ccccc1)C(=O)N[C@H](C(=O)N[C@@H](CCCCN)C(=O)N[C@@H](CCCCN)C(=O)N[C@@H](CCCCN)C(=O)NCC(=O)O)C(C)C)C(C)C
MBC (Bacillus subtilis; broth microdilution, agar subculture; ATCC 11774, CaMHB): 64 µM

CCOC(=O)C1(Cc2ccccc2)Oc2cc(C)ccc2N(Cc2ccccc2)C1=O (centres unmarked)
inhibition (Arabidopsis thaliana; root length, petri dish germination; Col-0, 1/2 MS medium; 50 µg/mL, 7 days, 22 °C, dark): 51.2%

[O-][N+]1=C(c2ccc(Cl)cc2)C2=NCCCCN2c2ccccc21
MIC50 (Fusobacterium nucleatum; microbial growth): 0.5 µg/mL (≈ 1.53 µM)

CC(C)C[C@H](NC(=O)[C@H](CC(C)C)NC(=O)[C@H](CCCCN)NC(=O)[C@H](Cc1ccccc1)NC(=O)[C@@H](NC(=O)[C@H](CCCNC(=N)N)NC(=O)[C@@H](N)CCCCN)C(C)C)C(=O)N[C@@H](CCCCN)C(=O)N[C@@H](CCCNC(=N)N)C(=O)N[C@@H](Cc1ccc(O)cc1)C(=O)N[C@@H](Cc1c[nH]c2ccccc12)C(=O)N[C@@H](CCCNC(=N)N)C(=O)N[C@@H](CCC(N)=O)C(=O)N[C@@H](CC(C)C)C(=O)N[C@@H](CCCCN)C(=O)N[C@@H](CCCCN)C(=O)N1CCC[C@H]1C(=O)N[C@H](C(=O)N[C@@H](CCCNC(=N)N)C(=O)NCCOCCOCC(=O)O)C(C)C
exopolysaccharide reduction (Pseudomonas aeruginosa and Staphylococcus aureus; confocal microscopy; mixed biofilm; 10 µM, 6 h, biofilm, pre-formed, 24 h): 65.2%

CC(C)[C@H]1NC(=O)[C@H](Cc2ccccc2)NC(=O)[C@@H](C(C)C)NC(=O)[C@@H](C)NC(=O)[C@H](C)NC(=O)[C@@H](Cc2c(-c3ccc(-c4ccc5ccccc5c4)cc3)[nH]c3ccccc23)NC(=O)[C@@H](CO)NC1=O
MIC90 (Candida albicans; broth dilution): > 50 µM

C[N+]1=C2C(c3ccc(Cl)cc3)=[N+]([O-])c3ccccc3N2CCC1
MIC50 (Fusobacterium nucleatum; microbial growth): 4 µg/mL

O=S(=O)(c1ccc(-c2ccc3ncnc(Nc4ccc(O)c(Cl)c4)c3c2)cc1)N1CCOCC1
EC50 (Plasmodium falciparum; parasite growth, SYBR Green fluorescence; C235 (TM91C235), drug-resistant): 18000 nM

CC(=O)c1c(O)c(C)c(O)c2c1OC1=CC(=O)C(=C(C)NCCCCOC3OC4OC5(C)CCC6C(C)CCC(C3C)C46OO5)C(=O)C12C (mixture of isomers)
mean survival time (Plasmodium berghei; ANKA GFP, NMRI mouse; oral, 4 x 100 mg/kg): 23.3 days

CN1CCN(S(=O)(=O)c2cccc(-c3ccc4ncnc(Nc5ccc(OCc6cccc(F)c6)c(Cl)c5)c4c3)c2)CC1
EC50 (Plasmodium falciparum; parasite growth, SYBR Green; D6; blood stage): 38 nM

CCc1nn(C)c2nc(-c3ccc(C(=O)O)cc3)nc(NCc3ccccc3)c12
parasite number (Cryptosporidium parvum; HCT-8; 3 x EC90, 72 h; reference: DMSO control): 41.9% and 41.4% and 50.9% and 48.8%

CCCCCCCC(=O)NCCCC[C@H](NC(=O)CCCCCCC)C(=O)N[C@@H](CCCCNC(=O)CCCCCCC)C(=O)NCC(=O)NCC(=O)NCC(=O)N[C@@H](CS)C(=O)N[C@@H](CCCNC(=N)N)C(=O)N[C@@H](CCCCN)C(=O)N1CCC[C@H]1C(N)=O
MIC (Candida albicans; broth microdilution; SP 3931, RPMI-1640; 48 h, 30 °C): > 128 µM

COc1ccc(-c2[nH]c3ccccc3c2C[C@H]2NC(=O)[C@@H](CO)NC(=O)[C@@H](C(C)C)NC(=O)[C@H](Cc3ccccc3)NC(=O)[C@@H](C(C)C)NC(=O)[C@@H](C)NC(=O)[C@H](CO)NC2=O)c(OC)c1
MIC90 (Candida albicans; broth dilution): > 50 µM

Fc1cccc(COc2ccc(Nc3ncnc4ccc(-c5ccc(N6CCCCC6)cc5)cc34)cc2Cl)c1
EC50 (Plasmodium falciparum; parasite growth, SYBR Green fluorescence; W2, drug-resistant): 1200 nM

CCOC(=O)C1(Cc2cc(F)c(F)c(F)c2)Oc2cc(F)ccc2N(Cc2cc(F)c(F)c(F)c2)C1=O (centres unmarked)
inhibition (Arabidopsis thaliana; stem length, petri dish germination; Col-0, 1/2 MS medium; 200 µg/mL, 7 days, 22 °C, dark): 63.6%

COc1ccc(C2=[N+]([O-])c3ccccc3N3CCN=C23)cc1
MIC50 (Fusobacterium nucleatum; microbial growth): ≤ 0.06 µg/mL

Cc1cc(C(=O)Nc2nc3cccc(C)c3n2[C@H]2CCCCN(C(=O)/C=C/CN(C)C)C2)ccn1
survival (Trypanosoma brucei brucei; 2T1 CLK1 overexpressing; 0.625 µM, DMSO pretreated; reference: maximum): 61.1% and 62.4% and 66.5% and 54.4%

CCOC(=O)C1(Cc2ccccc2F)Oc2cc(F)ccc2N(Cc2ccccc2F)C1=O (centres unmarked)
inhibition (Arabidopsis thaliana; stem length, petri dish germination; Col-0, 1/2 MS medium; 50 µg/mL, 7 days, 22 °C, dark): 37.7%

CC[C@H](C)[C@H](NC(=O)[C@H](CCCCN)NC(=O)[C@H](CCCCN)NC(=O)[C@H](Cc1ccccc1)NC(=O)[C@H](Cc1ccccc1)NC(=O)[C@H](CCCCN)NC(=O)[C@H](CCCCN)NC(=O)[C@H](Cc1ccccc1)NC(=O)[C@H](CCCNC(=N)N)NC(=O)[C@@H](N)CCCCN)C(=O)N[C@@H](CCCCN)C(=O)N[C@@H](CCCCN)C(=O)N[C@@H](CO)C(=O)N[C@H](C(=O)N[C@@H](CCCCN)C(=O)N[C@@H](CCCCN)C(=O)N[C@@H](CCCNC(=N)N)C(=O)N[C@H](C(=O)N[C@@H](CCCCN)C(=O)N[C@@H](CCCCN)C(=O)N[C@@H](CC(C)C)C(=O)N[C@@H](Cc1ccccc1)C(=O)N[C@@H](CCCCN)C(=O)N[C@@H](CCCCN)C(=O)N1CCC[C@H]1C(=O)N[C@@H](CCCNC(=N)N)C(=O)N[C@H](C(=O)N[C@H](C(=O)N1CCC[C@H]1C(=O)N[C@H](C(=O)N[C@@H](CO)C(=O)N[C@H](C(=O)N1CCC[C@H]1C(=O)N[C@@H](Cc1ccccc1)C(=O)O)[C@@H](C)CC)[C@@H](C)CC)[C@@H](C)CC)C(C)C)C(C)C)C(C)C
MBC (Klebsiella pneumoniae; ATCC 13883; 20 h): 4 µg/mL

CCOC(=O)C1(Cc2ccccc2)Oc2ccccc2N(Cc2ccccc2)C1=O (centres unmarked)
inhibition (Arabidopsis thaliana; stem length, petri dish germination; Col-0, 1/2 MS medium; 50 µg/mL, 7 days, 22 °C, dark): 36.8%

CCCCCCCCCCCC(=O)NCCCC[C@H](NC(=O)CCCCCCCCCCC)C(=O)N[C@@H](CCCCNC(=O)CCCCCCCCCCC)C(=O)NCC(=O)NCC(=O)NCC(=O)N[C@@H](CS)C(=O)N[C@@H](CCCNC(=N)N)C(=O)N[C@@H](CCCCN)C(=O)N1CCC[C@H]1C(=O)N[C@@H](CS)C(=O)N[C@@H](CCCNC(=N)N)C(=O)N[C@@H](CCCCN)C(=O)N1CCC[C@H]1C(N)=O
MIC (Candida albicans; broth microdilution; SP 3931, RPMI-1640; 48 h, 30 °C): > 128 µM

CCOC(=O)C1(Cc2ccc(C#N)cc2)Oc2cc(F)ccc2N(Cc2ccc(C#N)cc2)C1=O (centres unmarked)
inhibition (Arabidopsis thaliana; root length, petri dish germination; Col-0, 1/2 MS medium; 200 µg/mL, 7 days, 22 °C, dark): 60.2%

CN(C(=O)c1ccn2ncc(-c3ccc(C(N)=O)cc3)c2c1)c1ccc(C#N)cn1
faecal Nluc luminescence (Cryptosporidium parvum; UGA1 Nluc, IFN-gamma knockout C57BL/6 mice, faeces; oral, 10 mg/kg daily, 168 h post infection, treatment days 11-17; higher means more parasites): 8120 a.u. and 24100 a.u. and 1080 a.u. and 13100 a.u.

A few entries again:
CCOC(=O)C1(Cc2cc(F)c(F)c(F)c2)Oc2cc(F)ccc2N(Cc2cc(F)c(F)c(F)c2)C1=O (centres unmarked)
inhibition (Arabidopsis thaliana; stem length, petri dish germination; Col-0, 1/2 MS medium; 200 µg/mL, 7 days, 22 °C, dark): 63.6%

COc1ccc(C2=[N+]([O-])c3ccccc3N3CCN=C23)cc1
MIC50 (Fusobacterium nucleatum; microbial growth): ≤ 0.06 µg/mL

Cc1cc(C(=O)Nc2nc3cccc(C)c3n2[C@H]2CCCCN(C(=O)/C=C/CN(C)C)C2)ccn1
survival (Trypanosoma brucei brucei; 2T1 CLK1 overexpressing; 0.625 µM, DMSO pretreated; reference: maximum): 61.1% and 62.4% and 66.5% and 54.4%

CCOC(=O)C1(Cc2ccccc2F)Oc2cc(F)ccc2N(Cc2ccccc2F)C1=O (centres unmarked)
inhibition (Arabidopsis thaliana; stem length, petri dish germination; Col-0, 1/2 MS medium; 50 µg/mL, 7 days, 22 °C, dark): 37.7%

CC[C@H](C)[C@H](NC(=O)[C@H](CCCCN)NC(=O)[C@H](CCCCN)NC(=O)[C@H](Cc1ccccc1)NC(=O)[C@H](Cc1ccccc1)NC(=O)[C@H](CCCCN)NC(=O)[C@H](CCCCN)NC(=O)[C@H](Cc1ccccc1)NC(=O)[C@H](CCCNC(=N)N)NC(=O)[C@@H](N)CCCCN)C(=O)N[C@@H](CCCCN)C(=O)N[C@@H](CCCCN)C(=O)N[C@@H](CO)C(=O)N[C@H](C(=O)N[C@@H](CCCCN)C(=O)N[C@@H](CCCCN)C(=O)N[C@@H](CCCNC(=N)N)C(=O)N[C@H](C(=O)N[C@@H](CCCCN)C(=O)N[C@@H](CCCCN)C(=O)N[C@@H](CC(C)C)C(=O)N[C@@H](Cc1ccccc1)C(=O)N[C@@H](CCCCN)C(=O)N[C@@H](CCCCN)C(=O)N1CCC[C@H]1C(=O)N[C@@H](CCCNC(=N)N)C(=O)N[C@H](C(=O)N[C@H](C(=O)N1CCC[C@H]1C(=O)N[C@H](C(=O)N[C@@H](CO)C(=O)N[C@H](C(=O)N1CCC[C@H]1C(=O)N[C@@H](Cc1ccccc1)C(=O)O)[C@@H](C)CC)[C@@H](C)CC)[C@@H](C)CC)C(C)C)C(C)C)C(C)C
MBC (Klebsiella pneumoniae; ATCC 13883; 20 h): 4 µg/mL
